Earlier results that unrelated publications cite.
Protocols differ between the studies behind these lines.

SMILES = COc1ccccc1/C=C1\SC(=O)N(CC(=O)Nc2ccc(C(=O)Nc3ccc(Cl)cc3)cc2)C1=O; target = VEGFR-2; IC50 = 81 nM
SMILES = O=C(Nc1nc2cc(Cl)ccc2s1)c1cn(-c2ccccc2)nc1-c1ccc(F)cc1; target = VEGFR-2; test = kinase activity, inhibitor; IC50 = 96 nM
SMILES = Cc1ccc2nc(SCc3cn(-c4cccc(C(=O)O)c4)nn3)n(Cc3ccccc3)c(=O)c2c1; target = VEGFR-2; test = inhibitor; IC50 = 127 nM
SMILES = C=CCSc1nnc(-c2cc3ccccc3[nH]2)n1/N=C/c1c[nH]c2ccccc12; target = VEGFR2; test = kinase activity, inhibitor; IC50 = 19.8 nM
SMILES = CN(C)c1ccc(C2CC(c3c(O)c4ccccc4oc3=O)=NN2c2nc(-c3ccccc3)c(/N=N/c3ccc(Cl)cc3)s2)cc1 (stereo not drawn); target = VEGFR2; test = inhibitor; IC50 = 34 nM
SMILES = O=C(Cn1cc(Cn2c(=O)c(Cc3ccccc3)nc3ccccc32)nn1)NNC(=S)Nc1ccccc1; target = VEGFR-2; test = kinase activity, inhibitor; IC50 = 37 nM
SMILES = COc1cc2ncnc(Sc3nnc(C)s3)c2cc1OC; target = VEGFR-2; test = kinase activity, inhibitor; IC50 = 32 nM
SMILES = O=C(Cn1cc(Cn2c(=O)c(Cc3ccccc3)nc3ccccc32)nn1)N/N=C/c1cccnc1; target = VEGFR-2; test = kinase activity, inhibitor; IC50 = 1090 nM
SMILES = Cc1ccc(Nc2cc(Oc3ccc4[nH]ccc4c3)ncn2)cc1S(N)(=O)=O; target = VEGFR-2; test = inhibitor; IC50 = 45 nM
